# Measurements from different studies.
# Numbers after ± are the reported error.
# Chain of UniProt Q99683 (whole entry, looked up): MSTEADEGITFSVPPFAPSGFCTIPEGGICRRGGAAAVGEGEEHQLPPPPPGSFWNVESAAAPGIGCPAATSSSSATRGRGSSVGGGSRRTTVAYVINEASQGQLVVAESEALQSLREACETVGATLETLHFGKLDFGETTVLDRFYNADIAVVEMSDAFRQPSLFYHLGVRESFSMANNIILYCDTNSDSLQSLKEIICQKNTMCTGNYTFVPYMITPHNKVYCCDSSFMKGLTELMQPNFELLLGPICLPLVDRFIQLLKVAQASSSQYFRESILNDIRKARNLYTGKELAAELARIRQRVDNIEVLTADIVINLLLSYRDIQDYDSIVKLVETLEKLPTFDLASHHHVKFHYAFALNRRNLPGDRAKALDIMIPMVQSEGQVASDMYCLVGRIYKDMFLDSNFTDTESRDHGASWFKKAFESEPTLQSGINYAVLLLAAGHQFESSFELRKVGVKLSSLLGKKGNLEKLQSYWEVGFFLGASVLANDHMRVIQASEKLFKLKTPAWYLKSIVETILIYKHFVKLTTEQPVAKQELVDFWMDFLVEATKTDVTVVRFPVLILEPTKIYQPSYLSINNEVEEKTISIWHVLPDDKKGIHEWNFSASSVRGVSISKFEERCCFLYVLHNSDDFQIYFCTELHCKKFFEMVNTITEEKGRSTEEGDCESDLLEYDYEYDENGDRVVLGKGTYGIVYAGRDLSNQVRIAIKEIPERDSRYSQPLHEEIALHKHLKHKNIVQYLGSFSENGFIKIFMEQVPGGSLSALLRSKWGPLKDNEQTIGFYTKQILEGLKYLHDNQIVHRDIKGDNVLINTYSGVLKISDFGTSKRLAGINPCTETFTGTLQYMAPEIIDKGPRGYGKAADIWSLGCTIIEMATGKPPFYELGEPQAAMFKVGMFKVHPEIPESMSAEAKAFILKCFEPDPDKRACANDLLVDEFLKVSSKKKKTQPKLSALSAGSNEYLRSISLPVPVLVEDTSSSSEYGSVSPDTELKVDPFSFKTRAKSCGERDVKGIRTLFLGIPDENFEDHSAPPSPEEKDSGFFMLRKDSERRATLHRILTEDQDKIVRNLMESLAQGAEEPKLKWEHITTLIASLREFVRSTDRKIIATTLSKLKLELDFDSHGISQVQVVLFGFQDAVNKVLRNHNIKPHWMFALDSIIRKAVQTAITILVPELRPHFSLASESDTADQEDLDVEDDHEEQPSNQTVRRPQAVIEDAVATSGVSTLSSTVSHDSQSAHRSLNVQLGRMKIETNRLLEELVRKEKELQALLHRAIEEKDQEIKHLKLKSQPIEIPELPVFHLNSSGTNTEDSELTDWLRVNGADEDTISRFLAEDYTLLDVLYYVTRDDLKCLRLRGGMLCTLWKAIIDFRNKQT
Compound,tested on,assay,test system,setting,scale,measurement,result
Cn1nc(NS(C)(=O)=O)c2c(Cl)ccc(-n3c([C@H](Cc4cc(F)cc(F)c4)NC(=O)Cn4nc(C(F)F)c5c4C(F)(F)[C@@H]4C[C@H]54)nc4nc(OCCC(F)(F)F)ccc4c3=O)c21,,,"human, plasma","oral, 625 mg single dose, powder in bottle, geometric mean",,Cmax,329 ng/mL
C#Cc1c(F)ccc2cc(O)cc(-c3ncc4c(N5CC6CCC(C5)N6C(=O)OC(C)OC(=O)C5CCOC5)nc(OC[C@@]56CCCN5C[C@H](F)C6)nc4c3F)c12 (stereo partly shown),,item: prodrug,mouse whole blood,1 µM,,t1/2,2.48 min
COc1ccccc1-c1n[nH]c2nc(NC3CCN(C(=O)Cc4ccc(F)cc4F)CC3)ncc12,,"bead binding, competition bead pull-down, item: LINJ.05.0500",Leishmania donovani extract,10 µM,relative to: vehicle,relative abundance,0.95
C/C(=N\OCCCN1CCCCC1)c1ccc(C(F)(F)F)cc1,,,"mouse, plasma","oral, 75 mg/kg twice daily, day 1",,AUC(0-t),5950 ± 925 ng·h/mL
CC[C@H](C)[C@H](NC(=O)[C@H](CCCCN)NC(=O)CNC(=O)[C@H](CC(C)C)NC(=O)[C@H](Cc1ccccc1)NC(=O)[C@H](CCCCN)NC(=O)[C@H](CO)NC(=O)[C@H](Cc1ccccc1)NC(=O)[C@H](Cc1c[nH]c2ccccc12)NC(=O)[C@H](CCC(N)=O)NC(=O)[C@@H](NC(=O)[C@H](Cc1ccccc1)NC(=O)CCCCCNC(=O)CN1CCN(CC(=O)O)CCN(CC(=O)O)CCN(CC(=O)O)CC1)C(C)C)C(=O)N[C@@H](CCC(=O)O)C(=O)N1CCC[C@H]1C(=O)N[C@@H](CC(=O)O)C(=O)N[C@H](C(=O)N[C@@H](CO)C(=O)N[C@@H](CCC(N)=O)C(=O)N[C@H](C(=O)N[C@@H](CCC(N)=O)C(=O)N[C@@H](CC(=O)O)C(=O)N1CCC[C@H]1C(=O)N[C@@H](CC(N)=O)C(=O)N[C@@H](CC(=O)O)C(=O)N[C@@H](CCC(N)=O)C(=O)N[C@@H](Cc1ccc(O)cc1)C(=O)N[C@@H](CCC(=O)O)C(=O)N1CCC[C@H]1C(=O)N[C@@H](Cc1ccccc1)C(=O)O)C(C)C)C(C)C [copper-64 labelled],,dynamic PET,"mouse both sexes, CT26 tumour, checkpoint inhibitor-treated, tumour","intravenous, 100 µCi/mouse, 10 s",,SUVmean,0.11 SUV
N#[11C]c1ccc(-c2csc(NN=C3CCCC3)n2)cc1,,,"C57BL/6 mice, male, lung","intravenous, 3 MBq, 60 min",,radioactivity uptake,2.98 ± 0.45 %ID/g
CSCC[C@H](NC(=O)CNC(=O)[C@H](CCCCN)NC(=O)[C@H](CC(C)C)NC(=O)[C@@H]1CCCN1C(=O)[C@H](CO)NC(=O)[C@H](Cc1c[nH]cn1)NC(=O)[C@H](Cc1c[nH]c2ccccc12)NC(=O)[C@H](CCCNC(=N)N)NC(=O)[C@H](CC(C)C)NC(=O)[C@H](CCCNC(=N)N)NC(=O)[C@H](Cc1c[nH]c2ccccc12)NC(=O)[C@H](CS)NC(=O)CCCCCNC(=O)CN1CCN(CC(=O)O)CCN(CC(=O)O)CCN(CC(=O)O)CC1)C(=O)O [copper-64 labelled],,PET imaging,"BALB/c nude mice, kidney","intravenous, dose not given, 18 h, Huh-7 tumour-bearing",,tissue uptake,5.34 ± 0.4 %ID/g
CCn1ccc(-c2cc(-c3cnn(C)c3)cc([C@@H](C)NC(=O)c3cc(OCCN(C)C)ccc3C)c2)n1,,,"mouse C57BL/6J, male, plasma","intravenous, 10 mg/kg",,AUC extrapolated percentage,0.109%
C=C/C=C/C[C@@H](C)[C@@H](O)[C@H]1C(=O)N[C@@H](CC)C(=O)N(C)CC(=O)N(C)[C@@H](CC(C)C)C(=O)N[C@@H](C(C)C)C(=O)N(C)[C@@H](CC(C)C)C(=O)N[C@@H](C)C(=O)N[C@H](C)C(=O)N(C)[C@@H](CC(C)C)C(=O)N(C)[C@@H](CC(C)C)C(=O)N(C)[C@@H](C(C)C)C(=O)N1C,,,"Wistar Kyoto rats, male","ip, 0.5 mg/kg/day, day 18",relative to: vehicle,fractional sodium excretion,no effect
CC(C)[C@@H]1NC(=O)CNC(=O)[C@H](CC(N)=O)NC(=O)[C@H](CCCNC(=N)N)NC(=O)[C@H](Cc2ccc(O)cc2)NC(=O)[C@H](C(C)C)NC(=O)[C@@H](NC(=O)[C@@H](NC(=O)[C@H](CC(N)=O)NC(=O)[C@H](Cc2c[nH]c3ccccc23)NC(=O)[C@H](C)NC(=O)[C@H](Cc2ccccc2)NC(=O)CNC(=O)[C@H](CCCCN)NC(=O)[C@H](Cc2ccccc2)NC(=O)[C@H](Cc2ccccc2)NC(=O)[C@H](CCCCN)NC(=O)OCC2c3ccccc3-c3ccccc32)C(C)C)CSSC[C@@H](C(=O)N[C@@H](Cc2c[nH]cn2)C(=O)N[C@@H](CCCNC(=N)N)C(=O)N[C@@H](CCCNC(=N)N)C(=O)N[C@@H](C)C(=O)N[C@@H](CC(N)=O)C(N)=O)NC(=O)[C@H](C(C)C)NC(=O)[C@H](CCCNC(=N)N)NC1=O,,,"ICR mouse, blood","intramammary, 5 mg/kg, day 5, 3 d dosing",,creatinine,86.7 ± 1.74 µmol/L
CCCCC[C@@H]1OC(=O)[C@@H](C)N(C)C(=O)[C@H](CCCCC)N(C)C(=O)[C@@H](C)N(C)C(=O)[C@H](CCCCC)N(C)C(=O)[C@@H](C)N(C)C(=O)[C@H](CCCCC)OC(=O)[C@@H](C)N(C)C1=O,,"PAMPA, HPLC-UV",,"500 µM, pH 7.4",,log Papp,-5.37 ± 0.04
CSCC[C@H](N)C(=O)N[C@@H](C)C(=O)N[C@@H](CCCNC(=N)N)C(=O)N[C@@H](CCCNC(=N)N)C(=O)N[C@@H](CC(=O)O)C(=O)N[C@@H](CCCCN)C(=O)N[C@H](C(=O)N[C@@H](CC(=O)O)C(=O)N[C@@H](Cc1ccccc1)C(=O)N[C@@H](C)C(=O)N[C@@H](CCCNC(=N)N)C(=O)N[C@@H](CCCNC(=N)N)C(=O)N[C@@H](CCCNC(=N)N)C(=O)N[C@@H](CCCNC(=N)N)C(=O)NCCCCCC(=O)NCCCCC(NC(=O)CCCCCNC(=O)[C@H](CCCNC(=N)N)NC(=O)[C@H](CCCNC(=N)N)NC(=O)[C@H](CCCNC(=N)N)NC(=O)[C@H](CCCNC(=N)N)NC(=O)[C@H](C)NC(=O)[C@H](Cc1ccccc1)NC(=O)[C@H](CC(=O)O)NC(=O)[C@@H](NC(=O)[C@H](CCCCN)NC(=O)[C@H](CC(=O)O)NC(=O)[C@H](CCCNC(=N)N)NC(=O)[C@H](CCCNC(=N)N)NC(=O)[C@H](C)NC(=O)[C@@H](N)CCSC)[C@@H](C)O)C(=O)NCCCCC(NC(=O)C(CCCCNC(=O)CCCCCNC(=O)[C@H](CCCNC(=N)N)NC(=O)[C@H](CCCNC(=N)N)NC(=O)[C@H](CCCNC(=N)N)NC(=O)[C@H](CCCNC(=N)N)NC(=O)[C@H](C)NC(=O)[C@H](Cc1ccccc1)NC(=O)[C@H](CC(=O)O)NC(=O)[C@@H](NC(=O)[C@H](CCCCN)NC(=O)[C@H](CC(=O)O)NC(=O)[C@H](CCCNC(=N)N)NC(=O)[C@H](CCCNC(=N)N)NC(=O)[C@H](C)NC(=O)[C@@H](N)CCSC)[C@@H](C)O)NC(=O)CCCCCNC(=O)[C@H](CCCNC(=N)N)NC(=O)[C@H](CCCNC(=N)N)NC(=O)[C@H](CCCNC(=N)N)NC(=O)[C@H](CCCNC(=N)N)NC(=O)[C@H](C)NC(=O)[C@H](Cc1ccccc1)NC(=O)[C@H](CC(=O)O)NC(=O)[C@@H](NC(=O)[C@H](CCCCN)NC(=O)[C@H](CC(=O)O)NC(=O)[C@H](CCCNC(=N)N)NC(=O)[C@H](CCCNC(=N)N)NC(=O)[C@H](C)NC(=O)[C@@H](N)CCSC)[C@@H](C)O)C(N)=O)[C@@H](C)O (stereo partly shown),,,"C57BL/6 mouse female, small intestine",3 h,relative to: total dose,tissue distribution,11.5%
CC(C)[C@H](NC(=O)[C@H](Cc1c[nH]c2ccccc12)NC(=O)[C@H](CCCNC(=N)N)NC(=O)[C@H](CCCNC(=N)N)NC(=O)[C@@H](NC(=O)[C@@H](NC(=O)[C@H](CCCNC(=N)N)NC(=O)[C@@H](NC(=O)[C@@H](NC(=O)[C@H](CCCNC(=N)N)NC(=O)[C@H](CCCNC(=N)N)NC(=O)[C@@H](NC(=O)[C@H](Cc1c[nH]c2ccccc12)NC(=O)[C@H](CCCNC(=N)N)NC(=O)[C@H](CCCNC(=N)N)NC(=O)[C@@H](NC(=O)[C@H](CCCNC(=N)N)NC(=O)[C@H](CCCNC(=N)N)NC(=O)[C@@H](NC(=O)[C@H](Cc1c[nH]c2ccccc12)NC(=O)[C@H](CCCNC(=N)N)NC(=O)[C@@H](N)CCCNC(=N)N)C(C)C)C(C)C)C(C)C)C(C)C)C(C)C)C(C)C)C(C)C)C(=O)N[C@@H](CCCNC(=N)N)C(=O)N[C@@H](CCCNC(=N)N)C(=O)O,,,"Swiss Webster mice, male and female","intravenous, 14 days follow-up, single dose in saline",,MTD,30 mg/kg
CN1Cc2cc(Cl)ccc2-n2c(nnc2C2CCN(c3cccc([18F])n3)CC2)C1,,,"C57BL/6 mouse male, spleen","intravenous, dose not given, 5 min, with: blocking agent 10 mg/kg",,tissue uptake,4.81 ± 1.2 %ID/g
CC(=O)NCCCC[C@@H]1NC(=O)[C@H](Cc2c[nH]c3c(C)cccc23)NC(=O)[C@H]([C@@H](C)O)NC(=O)[C@H](CC(N)=O)NC(=O)[C@@H](NC(C)=O)C(C)(C)SSC(C)(C)[C@@H](C(=O)N[C@@H](Cc2ccc(OCCN)cc2)C(=O)N[C@@H](Cc2ccc3ccccc3c2)C(=O)NC2(C(=O)N[C@@H](CCC(=O)O)C(=O)N[C@@H](CC(N)=O)C(=O)N[C@@H](Cc3cccnc3)C(=O)N(C)CC(N)=O)CCOCC2)NC1=O,,equilibrium dialysis,"human, plasma",0.01 µM,,plasma protein binding,55.2 ± 0.6%
CC(C)C[C@@H](NC(=O)[C@@H](CCCCN)NC(=O)CNC(=O)CNC(=O)[C@@H]1CSSC[C@H](N)C(=O)NCC(=O)N[C@@H](CCCNC(=N)N)C(=O)N[C@@H](CCCNC(=N)N)C(=O)N[C@@H](C)C(=O)NCC(=O)NCC(=O)N[C@@H](CO)C(=O)N1)C(=O)N[C@H](C)C(=O)N[C@H](CCCCN)C(=O)N[C@H](CC(C)C)C(=O)N[C@H](C)C(=O)N[C@H](CCCCN)C(=O)N[C@H](CCCCN)C(=O)N[C@H](CC(C)C)C(=O)N[C@H](C)C(=O)N[C@H](CCCCN)C(=O)N[C@H](CC(C)C)C(=O)N[C@H](C)C(=O)N[C@H](CCCCN)C(=O)O,,immunohistochemistry,"mouse, kidney",20 min,,lowest detectable dose,0.3 mg/kg
CN(C)[C@H]1C[C@@]23CC[C@@]4(O2)C(=CC[C@]2(C)[C@@H](c5ccc6ccncc6c5)CC[C@H]24)C=C3[C@@H](O)[C@@H]1O,"MAP3K5 (Homo sapiens, UniProt Q99683)","ATP probe labelling, inhibitor, KiNativ profiling",,0.1 µM,,inhibition,12.4%
O=C1NC2(CC2)COc2ncc(F)cc2[C@H]2COCCN2c2ccn3ncc1c3n2,,,"Sprague-Dawley rat, male, serum","oral, 2.5 mg/kg/day, end of treatment, 4-week repeated-dose toxicity",,albumin/globulin ratio,1.64 ± 0.17
Cc1nnc(-c2ccc(CC(=O)NCCCC[C@H](NC(=O)c3ccc(OCc4ccc(B(O)O)cc4)c(-c4nc5ccccc5c(=O)[nH]4)c3)C(=O)NCC(=O)NCC(=O)NCC(=O)N[C@@H](Cc3ccccc3)C(=O)N[C@@H](Cc3ccccc3)C(=O)O)cc2)nn1,,UPLC-MS/MS,human serum,"100 µM, 4 h, 37 °C",,remaining compound,69.8%
COCC12CCC(OC)C34C5CC6(O)C(OC)C(O)C(O)(C5C6OC(=O)c5ccccc5)C(C(OC)C13)C4N(C)C2 (stereo not shown),,,"Sprague-Dawley rat, plasma","oral, dose not given, with NADES in PCW extract",,Tmax,45 min
CC(CCC(=O)NCC(=O)O)C1CCC2C3CCC4CC(OC5OC(C(=O)O)C(O)C(O)C5O)CCC4(C)C3CC(O)C12C (stereo not shown),,,"women, T/C genotype, plasma","dose not given, geometric mean",,plasma concentration,80.7 ng/mL
CC(C)(C)C(=O)OCOP(=O)(OCOC(=O)C(C)(C)C)C1CCCN(O)C1=O (stereo not shown),MDA-MB-435,,,,,log TGI,-4.65 log M

# Repeated from above:
Compound,tested on,assay,test system,setting,scale,measurement,result
CC(=O)NCCCC[C@@H]1NC(=O)[C@H](Cc2c[nH]c3c(C)cccc23)NC(=O)[C@H]([C@@H](C)O)NC(=O)[C@H](CC(N)=O)NC(=O)[C@@H](NC(C)=O)C(C)(C)SSC(C)(C)[C@@H](C(=O)N[C@@H](Cc2ccc(OCCN)cc2)C(=O)N[C@@H](Cc2ccc3ccccc3c2)C(=O)NC2(C(=O)N[C@@H](CCC(=O)O)C(=O)N[C@@H](CC(N)=O)C(=O)N[C@@H](Cc3cccnc3)C(=O)N(C)CC(N)=O)CCOCC2)NC1=O,,equilibrium dialysis,"human, plasma",0.01 µM,,plasma protein binding,55.2 ± 0.6%
CC(C)C[C@@H](NC(=O)[C@@H](CCCCN)NC(=O)CNC(=O)CNC(=O)[C@@H]1CSSC[C@H](N)C(=O)NCC(=O)N[C@@H](CCCNC(=N)N)C(=O)N[C@@H](CCCNC(=N)N)C(=O)N[C@@H](C)C(=O)NCC(=O)NCC(=O)N[C@@H](CO)C(=O)N1)C(=O)N[C@H](C)C(=O)N[C@H](CCCCN)C(=O)N[C@H](CC(C)C)C(=O)N[C@H](C)C(=O)N[C@H](CCCCN)C(=O)N[C@H](CCCCN)C(=O)N[C@H](CC(C)C)C(=O)N[C@H](C)C(=O)N[C@H](CCCCN)C(=O)N[C@H](CC(C)C)C(=O)N[C@H](C)C(=O)N[C@H](CCCCN)C(=O)O,,immunohistochemistry,"mouse, kidney",20 min,,lowest detectable dose,0.3 mg/kg
CN(C)[C@H]1C[C@@]23CC[C@@]4(O2)C(=CC[C@]2(C)[C@@H](c5ccc6ccncc6c5)CC[C@H]24)C=C3[C@@H](O)[C@@H]1O,"MAP3K5 (Homo sapiens, UniProt Q99683)","ATP probe labelling, inhibitor, KiNativ profiling",,0.1 µM,,inhibition,12.4%
